Measurements collected from several papers.
Protocols differ between the studies behind these lines. Values joined by “and” are separate records of one study, mostly repeats; a detail may differ. ± marks the error that the study gave.

| Compound | test | test system | setting | how to read | quantity | value |
| --- | --- | --- | --- | --- | --- | --- |
| N#Cc1cccc(-c2ccc(=O)n(Cc3cccc(-c4ncc(OCC5CCN(CC(=O)N6CCN(c7ccc8c(c7)C(=O)N(C7CCC(=O)NC7=O)C8=O)CC6)CC5)cn4)c3)n2)c1 (stereo not shown) |  | mice, EBC-1 xenograft | intraperitoneal, 10 mg/kg once daily, 10 days |  | tumour growth inhibition | 85.3% |
| CC1(C)C(=CC=CC=CC=CC2=[N+](CCCCCC(=O)NCCCC[C@@H]3NC(=O)[C@@H](Cc4ccccc4)NC(=O)[C@H](CC(=O)O)NC(=O)CNC(=O)[C@H](CCCNC(=N)N)NC3=O)c3ccc4ccccc4c3C2(C)C)N(CCCCS(=O)(=O)[O-])c2ccc3ccccc3c21 | fluorescence imaging | BALB/c nude mice, orthotopic U87MG-luc glioma | intravenous, 30 nmol, 72 h |  | tumour detection | not detected |
| O=C(Cc1ccc(F)cc1)NCCOc1ccc(-c2ccc(F)cc2)nn1 |  | mice MC38 colon tumour | oral, 20 mg/kg, 21 days, with: anti-PD-L1 antibody |  | tumour growth inhibition | 74.5% |
| COc1ccc(Nc2nc(Nc3ccc(OCCOCC[18F])cc3)ncc2Br)cc1 |  | S180 tumour-bearing mice | dose not given, 30 min, with: PF-562271 33 mg/kg po | reference: no blocker | tumour uptake reduction | ~88% |
| Cc1cc(N)c2ccccc2[n+]1CCCCCCCCCCCCCC[n+]1c(C)cc(N)c2ccccc21 |  | NOD/SCID mice, NB12 neuroblastoma xenograft | intraperitoneal, 4.5 mg/kg every other day, 10 days | reference: vehicle | tumour weight reduction | 65% |
| COC(=O)N[C@H]1CC[C@@H](Nc2cc(NCc3ccccc3F)n3ncc(C(C)C)c3n2)CC1 |  | mice with HCT-116 xenograft | oral, 15 mg/kg twice daily, 14 days |  | tumour growth delay | 6.6 ± 1.2 days |
| CCc1nnc(NS(=O)(=O)c2ccc(NC(=S)NC(=O)/C=C/c3ccc(F)cc3)cc2)s1 |  | BE(2)-C xenograft, athymic nude mice | intraperitoneal, 20 mg/kg daily, 3 weeks, days 17 to 21 | reference: vehicle | tumour volume | decreased |
| CC(=O)[CH](C(C)=O)[Pt-2]1([S+](C)C)[O]C(C)=CC(C)=[O+]1 (stereo not shown) |  | MCF7, BALB/c nude mice, xenograft | intravenous, 10 mg/kg, 30 days, single dose |  | tumour volume | 115 ± 38 mm³ |
| CCCCCCCCn1c(-c2cccnc2)nc(-c2ccc(C)cc2)c1-c1ccc(C)cc1 |  | Ehrlich ascites carcinoma-bearing mice | intraperitoneal, 250 mg/kg every other day, day 26 | reference: vehicle | tumour size reduction | ~66% |
| CCOc1cc(C(C)(C)C)ccc1C1=N[C@@H](c2ccc(Cl)cc2)[C@@H](c2ccc(Cl)cc2)N1C(=O)N1CCN(CC(=O)NCCOCCOCCOCCNC(=O)CN2CCN(C(=O)N3C(c4ccc(C(C)(C)C)cc4OCC)=N[C@@H](c4ccc(Cl)cc4)[C@H]3c3ccc(Cl)cc3)CC2=O)C(=O)C1 |  | nude mice, A549 xenograft | intraperitoneal, 30 mg/kg twice daily, 21 days |  | tumour growth inhibition | 52% and 52.4% |
| CCc1noc(CC)c1C(=O)O[C@H]1C(C)=C[C@]23C(=O)[C@@H](C=C(CO)[C@@H](O)[C@]12O)[C@H]1[C@@H](C[C@H]3C)C1(C)C |  | SKH1 mice, UV-induced skin tumours | topical, dose not given, gel, two consecutive days |  | tumour clearance | > 50% |
| O=C1N[C@](c2ccc(N3CCOCC3)cc2)(c2ccsc2)CC(O)=C1Sc1ccccc1Cl |  | C57BL/6 mice, B16-F10 allograft | oral or intraperitoneal, 100 mg/kg once daily |  | tumour growth | no inhibition |
| CN1CCc2cc(Nc3ncc(C(F)(F)F)c(NCc4cc[nH]n4)n3)ccc2C1 |  | mice, GL261 glioma xenograft | oral, 50 mg/kg daily |  | tumour growth inhibition | 56.1% |
| O=C(O)c1ccc(-c2nc(-c3cccc(C(F)(F)F)c3)cs2)cc1 |  | NB-4 cells, xenograft mice | oral, 20 mg/kg once daily, 7 days |  | tumour growth inhibition | 44% |
| Clc1ccc2ccc3[n+](c2c1)[Ir-3]12([c]4ccccc4-3)([c]3ccccc3-c3ccc4ccc(Cl)cc4[n+]31)[n+]1ccccc1-c1cccc[n+]12.F[P-](F)(F)(F)(F)F |  | BALB/c mice, 4T1 allograft | intraperitoneal, 4 mg/kg daily, from day 13 | reference: negative control | tumour volume | decreased |
| C[N+]1=C(C=CC=CC=C2N(CCCCCC(=O)NCCCC[C@H](NC(=O)[C@@H](CCC(=O)O)NC(=O)[C@@H](CCC(=O)O)NC(=O)[C@@H](CCC(=O)O)NC(=O)CCCCCNC(=O)C3CCC(CNC(=O)CC[C@H](NC(=O)N[C@@H](CCC(=O)O)C(=O)O)C(=O)O)CC3)C(N)=O)c3ccc4ccccc4c3C2(C)C)C(C)(C)c2c1ccc1ccccc21 (stereo partly shown) | FMT imaging | mice bearing PC-3 flu tumours, PC-3 flu tumour | 1 nmol |  | tumour uptake | 4.51 ± 0.77 pmol/g |
| O=C(Nc1ccc(C(F)(F)F)cc1Cl)c1cc(Cl)ccc1O | immunohistochemistry | mice LuCaP sample A PDX | oral, 150 mg/kg |  | tumour AR-V7 and Ki67 | inhibited |
| NC(N)=NCCCC(NC(=O)C1=C(CCNc2ccc3onc(-c4cc(Cl)c(O)cc4O)c3c2)C(O)C=C1)C(=O)O (stereo not shown) |  | BALB/c nude mice, HCT-116 xenograft | intraperitoneal, 5 and 10 mg/kg | reference: vehicle | tumour volume | decreased |
| CCCCCc1ccc(S(=O)(=O)N2CC2C(=O)OC)cc1 (stereo not shown) |  | mice, Lewis lung carcinoma | intraperitoneal, 5 to 15 mg once daily, 16 days |  | tumour growth inhibition | 65 to 71% |
